Measurements from different studies.
Each numbered part is a random draw from the data of one study; scales do not carry over between parts. Positions count from the first letter of the parent shown.

Study 1
Target: CCND1, cyclin fold, Cln2 fusion (human)
Method: yeast growth competition, sequencing
Medium: yeast
Setting: weak parent motif
Reference: not given
Direction: higher = stronger binding
Quantity: normalised enrichment score
Starting sequence: CDC25A docking peptide (human); PPHRRRLLFACSP; partner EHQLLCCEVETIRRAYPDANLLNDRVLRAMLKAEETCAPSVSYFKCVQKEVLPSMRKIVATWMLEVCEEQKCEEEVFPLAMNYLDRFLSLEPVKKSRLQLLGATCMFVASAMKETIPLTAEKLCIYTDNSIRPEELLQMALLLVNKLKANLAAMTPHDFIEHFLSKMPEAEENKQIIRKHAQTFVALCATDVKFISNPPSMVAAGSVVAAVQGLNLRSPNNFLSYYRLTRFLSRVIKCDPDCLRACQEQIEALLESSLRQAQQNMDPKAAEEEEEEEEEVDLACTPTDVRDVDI
PPHRRRLLFACSD [P13D]: 1
PPHRLRLLFACSP [R5L]: 0.796
PPHRRRLLFACLP [S12L]: 0.524
PPHRRRLLRACSP [F9R]: 0.465
PPHLRRLLFACSP [R4L]: 0.827
PPHRRKLLFACSP [R6K]: 0.0635
PPHRRRLLFACHP [S12H]: 0.246
PPHRRRTLFACSP [L7T]: 0.333
PPHRRRLLFTCSP [A10T]: 0.304
PPHRRRLLFACSI [P13I]: 0.342
PPHRRLLLFACSP [R6L]: 0.506
PPHRRRLTFACSP [L8T]: 0.204
YPHRRRLLFACSP [P1Y]: 0.252
PPHRRRLIFACSP [L8I]: 0.14
PPHRERLLFACSP [R5E]: -0.107
PPHERRLLFACSP [R4E]: 0.0121
PPHRRRLNFACSP [L8N]: 0.109
PPHRRRLLFACSR [P13R]: 0.0776
PPHRRRLWFACSP [L8W]: 0.522
PPHIRRLLFACSP [R4I]: 0.71
VPHRRRLLFACSP [P1V]: -0.0806
PPHRRRLLFACAP [S12A]: 0.258
PPHRRRLLFAYSP [C11Y]: -0.0674

Study 2
Target: RNA binding protein fox-1 homolog 2, RRM domain, GST-SBP tag (RBFOX2, Homo sapiens, UniProt O43251-10, residues 100-194)
Method: RNA Bind-n-Seq
Form: RNA
Medium: in vitro
Concentration: 365 nM
Setting: natural RNA segment, single round, ends assumed
Reference: no-protein control
Direction: higher = stronger binding
Quantity: RBNS enrichment (R)
Constant ends, left off below: GGGAGUUCUACAGUCCGACGAUC … UGGAAUUCUCGGGUGCCAA
Target sequence (chain): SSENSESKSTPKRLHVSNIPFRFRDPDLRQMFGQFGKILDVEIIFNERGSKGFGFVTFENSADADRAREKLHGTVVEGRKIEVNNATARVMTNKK
UGAGAUAUUUACAGUAUUAUUAAAGGGUUGGGCUGUUUUGCAUAACAAACUUUUUAUUGGCAUACCCAAAGAGCACAAGAUUGUCUGUCUGCUCGUUUUUAAAAAUUAAA: 0.542
AUGAUGACUUUUAAGCAUUUACAUCACGUACUCAUAACCUAUUAUGAAAAUAAAUGAAACUGGCUGGGUAUGGUGGCUCAUGCCUAUAAUCCCAGCACUUUGGGAGGCCG: 0.277
UCAAGGGUAUUCUUUUAAAACUCUGAUUUCAAAGGAUCAGUUGAAUUUAUACUUUAGUUAUGGGUGUUUUGUUACUUUUUUUUUUUUUGUAUCAUGACUCAGUAUGGUUC: 1.77
UUUCCCUUCUCUCCAGUUCUCCUUCCCUUACCAAGGAGAGGGGAGCAAAUGGUUUUGGGCAAGGGCUUUGGCCAUUCAUGUCAAGCUGGUUGUGGGUUUUUCAAGGUGCC: 0.201
AGUUGUACAAAUUGUGAUUGAGGAAAUGAAAAGGUUUAUACUUUUUAAAAAAAAAAAAACAAAAACAAAAAACAAAACUUCAAAUGGAAUAAAUUAUUCAUGAAGCCUUC: 1.07
CCUCUUUACCUCGCCCACGCGGACACACGCCUCCUGUAGUCGCUUUGCCUAUUGAUGUUCCUUUGGGUCUGUGAGGUUCUGUAAACUGUGCUAGUGCUGACGAUGUUCUG: 0.733
CUGAACCUCCUGUACAUGUGUUCAUGUUCCCAGCCAGCUCUGAGACCCAGGAACCAAAUAUUCCAUUUUGGCUUCUGCUAGAGCAGUCAUGGUUCCUCUCCUAAAAGCCA: 0.348
UCACAGAGGCUGACCACCUUACACUGCUGGGUGGUCACAACUGCUCACCAUGUGAACAUAGUACCUCAGUUCUGUCCUUGGCUGCAAUCGUUGUGUGCUCAGUGUUUUCU: 0.284
UCUAAGAAGCUCAGUUUUGCGGUUUUGAUUUCAGGUUGCAAACAUUUAAAUUGUGCACAGCAACAGGUUCUCAGUUCUGCCAGUUCCUUUAUGCUCCUGUAAUCGGCUAA: 0.346
AAAACUCAUCUUGAAUUGUAGCUCCCAUAAUUGCCAUGUGUUGUGGGAAGGACCCAGUGGGAGAUAAUUGAAAUAUGGGGGCAGUUUCCGCCAUACUGUUCUGGUGAUAG: 1.48
CUCAGUGGUCACUUUCCCGCUCCCACUUGGGGCUGGGAGCCGUGCCACCAUCCCCUAGAAGUCCUGUCCUCUUCACCCUGCCCUACCUGAGCCGCUGACUCUUCUGGCAA: 0.376
UUAGAAGGCUGCGGUGAUUCAAUUAGAUUGUCCCACUGCUGAGACCUGUAGGGCAGCUUCUAACAUGCUUUUUUCAAGGGGAGAGGAGUAGUGACAAGUCGUGUGUCGGA: 0.649

Study 3
Target: ABI1, truncated, D143A, DHFR fusion (Arabidopsis thaliana, UniProt P49597)
Method: DHFR PCA, dose-response
Medium: yeast
Setting: Hill fit, mean, not affinity
With: (+)-ABA, dose series
Direction: lower = more sensitive
Quantity: ABA EC50
Starting sequence: PYL1, truncated, DHFR fusion (Arabidopsis thaliana, UniProt Q8VZS8); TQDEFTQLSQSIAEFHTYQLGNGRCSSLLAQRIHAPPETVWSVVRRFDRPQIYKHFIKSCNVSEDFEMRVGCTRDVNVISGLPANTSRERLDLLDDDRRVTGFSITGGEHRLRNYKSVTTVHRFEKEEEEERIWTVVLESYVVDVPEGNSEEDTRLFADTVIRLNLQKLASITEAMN
G71W: 482 µM
D153S: 99.7 µM
P36R: 4.09 µM
C25G: 135 µM
I105A: 112 µM
G148K: 19.4 µM
F5C: 2.59 µM
P36C: 5.83 µM
D153G: 239 µM
C72T: 4.84 µM
D144W: 336 µM
I172W: 37 µM
T73D: 50 µM
S26V: 15.2 µM
N165D: 313 µM

Study 4
Target: Sal-like protein 4, full length isoform B (SALL4, Homo sapiens, UniProt Q9UJQ4-2, residues 1-616)
Method: universal PBM
Form: double-stranded DNA, one strand shown
Medium: in vitro
Concentration: not given
Setting: 8-mer, flanks averaged, mean of replicates
Direction: higher = stronger binding
Quantity: E-score
Construct (chain): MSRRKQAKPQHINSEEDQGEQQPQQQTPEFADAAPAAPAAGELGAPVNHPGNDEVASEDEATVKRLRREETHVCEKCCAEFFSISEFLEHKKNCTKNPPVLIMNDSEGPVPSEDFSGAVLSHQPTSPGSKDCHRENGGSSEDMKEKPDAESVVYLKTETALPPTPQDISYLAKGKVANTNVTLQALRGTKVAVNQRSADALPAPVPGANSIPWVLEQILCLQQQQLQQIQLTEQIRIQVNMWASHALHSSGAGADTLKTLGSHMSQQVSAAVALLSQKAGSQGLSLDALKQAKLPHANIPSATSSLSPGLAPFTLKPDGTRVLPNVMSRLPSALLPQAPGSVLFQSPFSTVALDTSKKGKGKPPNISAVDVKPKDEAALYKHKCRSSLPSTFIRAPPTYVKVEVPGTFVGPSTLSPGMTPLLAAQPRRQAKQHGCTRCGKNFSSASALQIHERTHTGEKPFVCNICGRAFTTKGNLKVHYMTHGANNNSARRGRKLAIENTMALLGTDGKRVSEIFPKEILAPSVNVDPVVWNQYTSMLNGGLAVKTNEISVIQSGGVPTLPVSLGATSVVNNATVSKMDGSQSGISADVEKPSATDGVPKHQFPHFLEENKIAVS
ACATACTA: 0.17
CACTCTTA: 0.0492
CTGGCGGA: -0.221
CTGCATGC: -0.101
CAAGGCTA: 0.0644
GACCTGAA: -0.0979
CGGACCAA: -0.166
ACAACTGC: -0.0166
GTCTACTA: 0.129
AATTTGGG: 0.215
ACCAACCA: -0.0319
CAGGTTAC: -0.0637
AGTATCAA: 0.0987
ATAATGCG: 0.312
AAGAAGAG: 0.159
GCACACCA: -0.254
GAAGATCC: -0.211
CGAGGGAC: -0.357
ACGTGGTA: -0.0349
CACCGTAC: -0.0128
CCGGTGGC: -0.375
ACCGGGTG: -0.291

Study 5
Target: OGT, full length, His-tagged (human)
Method: phage display, sequencing
Medium: in vitro
Concentration: 1 µg OGT
Setting: single substitutions, 15-mer displayed peptide, unchanged parent 16.7
Reference: input library
Direction: higher = stronger binding
Quantity: fold enrichment
Starting sequence: peptide; NSEYMPQYQIIFAHQ
NSEFMPQYQIIFAHQ [Y4F]: 17.3 fold
NSEYMPQYQIIFLHQ [A13L]: 9.38 fold
NIEYMPQYQIIFAHQ [S2I]: 13 fold
NSEYMPQYQIKFAHQ [I11K]: 21.4 fold
NSEYPPQYQIIFAHQ [M5P]: 7.75 fold
NSEYMPQYQIIFANQ [H14N]: 13.5 fold
NSEYMPQRQIIFAHQ [Y8R]: 0.594 fold
NSEYMPQYQLIFAHQ [I10L]: 2.56 fold
NSEYMPQYQIIHAHQ [F12H]: 4.06 fold
NSEYMPQQQIIFAHQ [Y8Q]: 0.565 fold
NSEYMMQYQIIFAHQ [P6M]: 3 fold
NSEYMPQSQIIFAHQ [Y8S]: 0.443 fold
NSEYMPGYQIIFAHQ [Q7G]: 4.24 fold
NSEYMKQYQIIFAHQ [P6K]: 0.0111 fold
RSEYMPQYQIIFAHQ [N1R]: 11.3 fold
NSEYMHQYQIIFAHQ [P6H]: 0.951 fold
NSEYMQQYQIIFAHQ [P6Q]: 0.909 fold
NSEYMPQYQGIFAHQ [I10G]: 0.0162 fold
NSEYMPQYQIIFADQ [H14D]: 4.93 fold
NSEYMPQYQIIFAKQ [H14K]: 18.9 fold
NSEYMPQYQIIAAHQ [F12A]: 3.15 fold
NSEYMPQYQIIFAHP [Q15P]: 29 fold
NSEYMPQYQIIFAHR [Q15R]: 16.4 fold
NSEYMPQYQRIFAHQ [I10R]: 0.365 fold
NHEYMPQYQIIFAHQ [S2H]: 17.5 fold

Study 6
Target: CRIPT, C-terminal peptide
Method: DHFR complementation, deep sequencing
Medium: yeast
Setting: single substitutions, model-inferred values
Reference: wild type
Direction: higher = weaker binding
Quantity: binding free energy change
Starting sequence: ERBIN, PDZ domain 1 (human); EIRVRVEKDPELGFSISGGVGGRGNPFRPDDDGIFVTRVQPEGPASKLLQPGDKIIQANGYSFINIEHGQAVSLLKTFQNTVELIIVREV; partner TKNYKQTSV
T81V: -0.0467 kcal/mol
P29M: 0.0815 kcal/mol
G22K: 0.714 kcal/mol
E11A: -0.121 kcal/mol
G24F: 1.27 kcal/mol
D32P: 0.00825 kcal/mol
E89A: 0.121 kcal/mol
N59E: -0.0599 kcal/mol
S62P: 0.0844 kcal/mol
F63C: 0.156 kcal/mol
K76Q: 0.403 kcal/mol
F63K: 1.6 kcal/mol

Further values, each from its own experiment
PhoQ, residues 284 288 289 292 302 303 DDMDFR
fold induction (PhoP, residues 12 14 15 18 19 NHFIF (Escherichia coli, UniProt P23836); Sort-seq, refers to: YFP reporter; E. coli; PhoQ-PhoP variant library, with: 10 µM Mg2+; reference: high Mg2+ state, higher = stronger signaling): 0.974
